Measurements of several laboratories.
Numbers after ± are the reported error.

O=C(COc1ccc(-c2ccccc2)cc1)N[C@@H]1O[C@H](CO)[C@@H](O)[C@H](O)[C@H]1O — minimal cytotoxic concentration (HEL fibroblasts; cell morphology; 3 days): > 100 µM
CC(=O)Oc1ccc(Cn2cc(C)c(=O)[nH]c2=O)cc1C1OC(c2ccc(Cl)cc2)=NN1C(C)=O (stereo not drawn) — minimum cytotoxic concentration (HEL fibroblasts; cell morphology alteration): 100 µM
N=C(N)NCCC[C@@H]1NC(=O)[C@H](Cc2csc3ccccc23)NC(=O)[C@@H](Cc2ccccc2)NC(=O)[C@H](Cc2ccccc2)NC(=O)[C@H](CCC(=O)NCCOCCOCC(=O)N[C@@H](CCCCNC(=O)c2ccc3c(c2)C(=O)OC32c3ccc4cc(O)ccc4c3Oc3c2ccc2cc(O)ccc32)C(N)=O)NC(=O)[C@@H](CCCNC(=N)N)NC(=O)[C@H](CCCNC(=N)N)NC(=O)[C@@H](CCCNC(=N)N)NC1=O — cellular uptake (HeLa; flow cytometry; 5.0 µM, 2 h, 1% FBS; relative to: CPP12): 79 ± 13%
COc1cc(O)c2c(c1)/C=C/C[C@H](O)[C@H](O)C(=O)/C=C\C[C@H](C)OC2=O — cytotoxicity (Calu-3, SARS-CoV-2 infected; alamarBlue; concentration not given): not toxic
CCN(CC)CC#CCOC(=O)[C@]1(C)CCC[C@]2(C)[C@H]3C[C@H]4C(C(C)C)=C[C@]3(CC[C@H]21)[C@@H]1C(=O)OC(=O)[C@@H]14 — viability (BHK-21-hACE2; 20.0 µM, 48 (unit not given)): 148%
c1cc(Nc2c3c(nc4ccccc24)CCCC3)c2cccnc2c1 — inhibition (HepG2; MTT; 50 µM, 24 h, 10% FBS): 9.55 ± 0.56%
CCCCCCCCCCCCCCCC(=O)N[C@@H](CCCCN)C(=O)N1CCC[C@H]1C(=O)N[C@H](C(N)=O)C(C)C — HC50 (murine erythrocytes; hemolysis; 1 h): 62.5 µM
CC(=O)Oc1ccc(Cn2cc(F)c(=O)[nH]c2=O)cc1C1OC(c2ccccc2)=NN1C(C)=O (stereo not drawn) — minimum cytotoxic concentration (HEL fibroblasts; cell morphology alteration): > 100 µM
CC(=O)OC[C@H]1O[C@@H](NC(=O)COc2ccc(-c3ccccc3)cc2)[C@H](OC(C)=O)[C@@H](OC(C)=O)[C@@H]1OC(C)=O — minimal cytotoxic concentration (HEL fibroblasts; cell morphology; 3 days): > 100 µM
COc1c(OC(=O)N(C)c2ccc(Br)cc2)cc2oc3cc4c(c(O)c3c(=O)c2c1CC=C(C)C)C=CC(C)(C)O4 — inhibition (PC-12; cell proliferation, MTT; 10 µM, 24 h): 5.3%
O=C1C(O)=C(CN2CCNCC2)C(=O)c2ccccc21 — median lethal concentration (BGM (monkey kidney); MTT; 10% FCS; 24 h): ≥ 3670 µM
CSCC[C@H](N)C(=O)N[C@@H](CCC(=O)O)C(=O)N[C@H](C(=O)NCC(=O)N[C@@H](Cc1c[nH]c2ccccc12)C(=O)N[C@@H](Cc1ccc(O)cc1)C(=O)N[C@@H](CCCNC(=N)N)C(=O)N[C@@H](CO)C(=O)N1CCC[C@H]1C(=O)N[C@@H](Cc1ccccc1)C(=O)N[C@@H](CO)C(=O)N[C@@H](CCCNC(N)=O)C(=O)N[C@H](C(=O)N[C@H](C(=O)N[C@@H](Cc1c[nH]cn1)C(=O)N[C@@H](CC(C)C)C(=O)N[C@@H](Cc1ccc(O)cc1)C(=O)N[C@@H](CCCNC(N)=O)C(=O)N[C@@H](CC(N)=O)C(=O)NCC(=O)N[C@@H](CCCCN)C(N)=O)C(C)C)C(C)C)C(C)C — cytotoxic concentration (mouse bone marrow-derived dendritic cells; MTT): ≤ 10 µM
Cc1ccc2c(Nc3ccc4ccccc4n3)c3c(nc2c1)CCCC3 — inhibition (HepG2; MTT; 50 µM, 24 h, 10% FBS): -10.1 ± 0.5%
Cc1ccc(NCCN(C)CCNc2ccnc3cc(Cl)ccc23)c2c(=O)c3ccccc3sc12 — viability reduction (Vero E6; cytotoxicity; 30.0 µM, 72 (unit not given)): < 20%
CCCCCC1CCCCCCC(=O)CCC(=O)OCC2OC(OC3C(O1)OC(C)C(OC(C)=O)C3O)C(O)C(O)C2OC(=O)C=Cc1ccccc1 (stereo not drawn) — IC50 (MDA-MB-231; cytotoxicity): 6.85 µM
COc1ccnc(Nc2c3c(nc4ccccc24)CCC(C)C3)c1 (stereo not drawn) — inhibition (HepG2; MTT; 50 µM, 24 h, 10% FBS): 6.08 ± 0.1%
CC(C)c1ccc(/C=C/C(=O)NC(=O)N[C@@H]2O[C@H](CO)[C@@H](O)[C@H](O)[C@H]2O)cc1 — minimal cytotoxic concentration (HEL fibroblasts; cell morphology; 3 days): > 100 µM
CC=C(C)C(=O)OC1C(OC(=O)C=Cc2ccccc2)C2COC(=O)CCC(=O)CCCCCCC(CCCCC)OC3OC(C)C(OC(C)=O)C(OC(C)=O)C3OC(O2)C1OC(C)=O (stereo not drawn) — IC50 (MDA-MB-231; cytotoxicity): > 10 µM
CCc1cccc(N(C)C(=O)Oc2cc3oc4cc5c(c(O)c4c(=O)c3c(CC=C(C)C)c2OC)C=CC(C)(C)O5)c1 — inhibition (PC-12; cell proliferation, MTT; 10 µM, 24 h): 0%
CC(=O)Oc1ccc(Cn2ccc(=O)[nH]c2=O)cc1C1OC(c2ccccc2)=NN1C(C)=O (stereo not drawn) — minimum cytotoxic concentration (HEL fibroblasts; cell morphology alteration): ≥ 100 µM
CCCCn1cc(C(=O)O)c(=O)c2cc(F)c3c(nnn3-c3cccc(Cl)c3)c21 — IC50 (SW-620; cell growth, SRB; 72 h): 45.7 ± 1.22 mg/L
NCCCC[C@H](NC(=O)[C@H](Cc1ccc(O)cc1)NC(=O)[C@H](CCCCN)NC(=O)[C@@H](N)Cc1c[nH]c2ccccc12)C(=O)NCC(=O)N[C@@H](Cc1c[nH]cn1)C(=O)N1CCC[C@H]1C(=O)NCC(=O)NCC(=O)N1CCC[C@H]1C(=O)N[C@@H](CCC(N)=O)C(=O)N[C@@H](CC(=O)O)C(=O)N[C@@H](CC(=O)O)C(=O)N[C@@H](CC(=O)O)C(=O)N[C@@H](CC(=O)O)C(=O)N[C@@H](CC(=O)O)C(=O)N[C@@H](CC(=O)O)C(=O)O — cytotoxicity (mouse bone marrow macrophages; CCK-8; concentration not given, 24 h): not toxic
CC(C)C1=C[C@@]23CC[C@@H]4[C@](C)(CCC[C@@]4(C)C(=O)OCC#CCN4CCOCC4)[C@H]2C[C@@H]1[C@H]1C(=O)OC(=O)[C@H]13 — viability (BHK-21-hACE2; 20.0 µM, 48 (unit not given)): 91%
O=c1cc[s+]([O-])c2ccccc12 (single isomer, unassigned; (-)) — CC50 (U-937; MTT; 72 h): 459 µM
CC(=O)Oc1ccc(Cn2cc(F)c(=O)[nH]c2=O)cc1C1OC(c2cccc(Cl)c2)=NN1C(C)=O (stereo not drawn) — minimum cytotoxic concentration (HEL fibroblasts; cell morphology alteration): ≥ 100 µM
NCc1ccc(NC(=O)c2ccc3ccc(Cl)cc3c2O)cc1 — cell death (A549, uninfected; 10 µM, 48 h): 33%
CCCCn1cc(C(=O)O)c(=O)c2cc(F)c(Nc3cccc(Cl)c3)c([N+](=O)[O-])c21 — IC50 (HCT-116; cell growth or viability, SRB): 77.9 µM
CC(=O)N[C@@H](CC(=O)O)C(=O)N[C@@H](CCC(=O)O)C(=O)N[C@@H](CC(=O)O)C(=O)N[C@H](C(=O)NCC(=O)NCC(=O)NCC(=O)NCCNC(=O)OCC1c2ccccc2-c2ccccc21)C(C)C — apoptotic level (HepG2; western blot, measured: cleaved PARP; 400 µM, 72 h; relative to: 10 µM camptothecin): 58%
CC(C)C[C@@H]1NC(=O)[C@@H](Cc2c[nH]c3ccccc23)NC(=O)[C@H](CCCNC(=N)N)NC(=O)[C@@H](CCC(=O)O)NC(=O)[C@H](CCC(N)=O)NC(=O)[C@@H](CCC(=O)O)NC(=O)[C@H](CCCNC(=N)N)NC(=O)[C@@H](Cc2c[nH]c3ccccc23)NC1=O — HD50 (erythrocytes; hemolysis): > 660 µM
CCCCn1cc(C(=O)O)c(=O)c2cc(F)c(Nc3ccccc3Cl)c(N)c21 — IC50 (SW-620; cell growth or viability, SRB): 55 µM

Repeated from above:
CC(C)C1=C[C@@]23CC[C@@H]4[C@](C)(CCC[C@@]4(C)C(=O)OCC#CCN4CCOCC4)[C@H]2C[C@@H]1[C@H]1C(=O)OC(=O)[C@H]13 — viability (BHK-21-hACE2; 20.0 µM, 48 (unit not given)): 91%
O=c1cc[s+]([O-])c2ccccc12 (single isomer, unassigned; (-)) — CC50 (U-937; MTT; 72 h): 459 µM
CC(=O)Oc1ccc(Cn2cc(F)c(=O)[nH]c2=O)cc1C1OC(c2cccc(Cl)c2)=NN1C(C)=O (stereo not drawn) — minimum cytotoxic concentration (HEL fibroblasts; cell morphology alteration): ≥ 100 µM
NCc1ccc(NC(=O)c2ccc3ccc(Cl)cc3c2O)cc1 — cell death (A549, uninfected; 10 µM, 48 h): 33%
